Measured values collected from several papers.
Each line is one published result; not all experiments were run side by side. Values joined by “and” are separate records of one study, mostly repeats; a detail may differ. ± marks the error that the study gave. ≈ marks a conversion by molar mass, not a printed value.

CC(C)[C@@H](C)Nc1nc(-c2cccs2)nc(Cl)c1-c1ccccc1F — EC50 (Schistosoma mansoni; worm motility; adult worms ex vivo; 24 h): 590 nM
CC1=C(Cn2cc(CN)nn2)C(=O)c2ccccc2C1=O — killing (Schistosoma mansoni; adult worms; 25 µM, 72 h): 52.8%
COc1ccc(Nc2cnnc3cc(-c4ccc(S(=O)(=O)N5CCN(C)CC5)cc4)ccc23)cc1 — phenotypic severity score (Schistosoma mansoni; adult worms; 10 µM, 1 h; direction not given): 0
CC(=O)N1CCC(C(=O)N2CCN3C(=O)c4cc(-c5ccccc5)ccc4NC(=O)C3C2)CC1 (centres unmarked) — mean lifespan (Caenorhabditis elegans; N2; 6.25 µM): 18.8 days
C=CC(=O)ON=C1C=CC(=C(C#N)c2ccccc2)C=C1 — MFC (Kluyveromyces marxianus; broth dilution; ATCC 204093; 48 h, 37 °C): 16 µg/mL (≈ 57.9 µM)
CC1=C(Cn2cc(CN3CCOCC3)nn2)C(=O)c2ccccc2C1=O — killing (Schistosoma mansoni; adult worms; 25 µM, 72 h): 54.6%
COc1ccc(Nc2cnnc3ccc(-c4cnc(N5CCCN(C)CC5)nc4)cc23)cc1 — phenotypic severity score (Schistosoma mansoni; adult worms; 10 µM, 24 h; direction not given): 1
COC(=O)[C@H](Cc1c[nH]c2ccccc12)NCc1cc2ccccc2nc1OC — growth (Pseudomonas aeruginosa; 64 µg/mL, with: pentamidine 100 µM; baseline: control): 38.2%
Cc1cc(OC(C)C)ccc1C(=O)C(C)(C)NC(=O)c1sccc1C — inhibition (Botrytis cinerea; appressorium formation; B05.10; 0.01 µg/mL): 16.9 ± 17.5%
Fc1ccccc1N/N=C/c1ccc(-c2cccc(/C=N/Nc3ccccc3F)c2)cc1 — selectivity ratio (Aspergillus terreus; ATCC MYA-3633; baseline: mammalian CC50 over MIC): < 0.5
COc1ccc(Nc2cnnc3ccc(-c4ccc(S(=O)(=O)N5CCN(C)CC5)cc4)cc23)cc1Cl — phenotypic severity score (Schistosoma mansoni; adult worms; 10 µM, 5 h; direction not given): 1
CC1=C(Cc2cn(Cc3ccccc3)nn2)C(=O)c2ccccc2C1=O — killing (Schistosoma mansoni; adult worms; 25 µM, 48 h): 56.3%
COc1cc2c(cc1OC)[C@@H]1C(=O)c3ccc4c(c3O[C@@H]1CO2)C=CC(C)(C)O4 — viral protein levels (E1A, DBP, structural proteins) (human adenovirus C5 wild type; Western blot; A549; 2 µM, 48 h post-infection): decreased
N#CC(=C1C=CC(=NOC(=O)OCc2ccccc2)C=C1)c1ccccc1 — MFC (Kluyveromyces marxianus; broth dilution; ATCC 204093; 48 h, 37 °C): 64 µg/mL (≈ 180 µM)
N=C(N)c1ccc(OCc2cc(COc3ccc(C(=N)N)cc3)cc(-c3ccccc3)c2)cc1 — FICI (Escherichia coli; checkerboard; mcr-1 polymyxin-resistant; unit not given, with: rifampicin; lower = stronger synergy): 0.047
N#Cc1cc(F)c(-c2c(Cl)nc(-c3cccs3)nc2NCC2CCC2)c(F)c1 — EC50 (Schistosoma mansoni; worm motility; adult worms ex vivo; 24 h): < 300 nM
COC[C@H]1O[C@@H]2O[C@H]3[C@H](OC)[C@@H](OC)[C@@H](O[C@H]4[C@H](OC)[C@@H](OC)[C@@H](O[C@H]5[C@H](OC)[C@@H](OC)[C@@H](O[C@H]6[C@H](OC)[C@@H](OC)[C@@H](O[C@H]7[C@H](OC)[C@@H](OC)[C@@H](O[C@H]8[C@H](OC)[C@@H](OC)[C@@H](O[C@H]1[C@H](OC)[C@H]2OC)O[C@@H]8COC)O[C@@H]7COC)O[C@@H]6COC)O[C@@H]5COC)O[C@@H]4COC)O[C@@H]3COC — inhibition (Escherichia coli; LuxR reporter, antagonist; DH5α sensor strain; 4 µM, with: OHHL 200 nM): -1 ± 6%
CN1CCN(c2ncc(-c3ccc4nncc(Nc5ncccn5)c4c3)cn2)CC1 — phenotypic severity score (Schistosoma mansoni; adult worms; 10 µM, 1 h; direction not given): 0
OC(Cn1cncn1)(Cn1cncn1)c1ccc(F)cc1F — biofilm mass reduction (Candida albicans; XTT, preformed biofilm; ATCC 60193; 1 × MIC, 24 h): 44 to 50%
Nc1nc(-c2ccccc2)nc2[nH]nc(Nc3ccc(C(F)(F)F)cc3)c12 — clinical score (coxsackievirus B3; 31-1-93, NMRI mice, CVB3 chronic myocarditis; oral, 100 mg/kg twice daily, day 11, dosed days 1 to 7, score scale 0 to 7; direction not given): 0.22
C=CC[C@@H]1c2ccc(OC)c(OC)c2CN2CCc3cc4c(cc3[C@H]12)OCO4 — relative wound size (Staphylococcus aureus; P2rx7+/+ mice, skin wound infection; dose not given, day 4; baseline: day 0): 0.54 and 1.12 and 0.63 and 0.24 and 0.34 and 0.35
COC(=O)[C@H](Cc1c[nH]c2ccccc12)NCc1cc2ccccc2nc1SC — growth (Pseudomonas aeruginosa; 4 µg/mL, without pentamidine; baseline: control): 100%
CC1=C(Cc2cn(CCN3CCC(F)(F)CC3)nn2)C(=O)c2ccccc2C1=O — killing (Schistosoma mansoni; adult worms; 25 µM, 72 h): 53.8%
N=C(N)c1ccc(OCc2cccc(COc3ccc(C(=N)N)cc3)c2)cc1 — MIC in combination (Escherichia coli; BW25113; concentration not given, lowest-FICI combination, with: novobiocin): 25 µg/mL
CO[C@H]1/C=C/O[C@@]2(C)Oc3c(C)c(O)c4c(c3C2=O)C2=NC3(CCN(CC(C)C)CC3)NC2=C(NC(=O)/C(C)=C\C=C\[C@H](C)[C@H](O)[C@@H](C)[C@@H](O)[C@@H](C)[C@H](OC(C)=O)[C@@H]1C)C4=O — IC50 (Mycobacteroides abscessus; bacterial growth; subsp. abscessus ATCC 19977): 1.6 µM
C=C1[C@H](CO)[C@@H](O)C[C@@H]1n1cnc2c(=O)[nH]c(N)nc21 — maximum change in serum pgRNA (Hepatitis B virus; measured: HBV pgRNA; chronic HBV infection patients; 0.5 mg/day, 28 days; baseline: baseline): -1.05 log10 copies/mL
C#CCOC(=O)ON=C1C=CC(=C(C#N)c2ccccc2)C=C1 — MFC (Kluyveromyces marxianus; broth dilution; ATCC 204093; 48 h, 37 °C): 8 µg/mL (≈ 26.3 µM)
CC(=Nc1ccc(N=Cc2cnccn2)cc1)N(C)C — worm count (Necator americanus; infected hamsters, small intestine; oral, 50 mg/kg single, 2 h): 10.5 ± 1.8
C[C@H]1c2cccc(O)c2C(=O)C2=C(O)[C@]3(O)C(=O)C(C(N)=O)=C(O)[C@@H](N(C)C)[C@@H]3[C@@H](O)[C@@H]21 — median adult worm burden (Brugia malayi; SCID mouse; x42d dosing, 6 weeks post-treatment): 7 worms per mouse
COC(=O)[C@H](Cc1ccc(O)cc1)NCc1cc2ccccc2nc1SC — growth (Pseudomonas aeruginosa; 8 µg/mL, with: pentamidine 50 µM; baseline: control): 98%
CN[C@H](CC(C)C)C(=O)N[C@H]1C(=O)N[C@@H](CC(N)=O)C(=O)N[C@H]2C(=O)N[C@H]3C(=O)N[C@H](C(=O)N[C@H](C(=O)O)c4cc(O)cc(O)c4-c4cc3ccc4O)[C@H](O)c3ccc(c(Cl)c3)Oc3cc2cc(c3O[C@@H]2O[C@H](CO)[C@@H](O)[C@H](O)[C@H]2O[C@H]2C[C@](C)(N)[C@H](O)[C@H](C)O2)Oc2ccc(cc2Cl)[C@H]1O — MIC50 (Staphylococcus epidermidis; methicillin-resistant, 10 isolates; pH 7.0): 1 µg/mL (≈ 0.69 µM)
CC1=C(Cc2cn(CCOS(=O)(=O)c3ccc(C)cc3)nn2)C(=O)c2ccccc2C1=O — killing (Schistosoma mansoni; adult worms; 10 µM, 24 h): 33.6%
CN1CCN(c2ncc(-c3ccc4nncc(Nc5cnccn5)c4c3)cn2)CC1 — phenotypic severity score (Schistosoma mansoni; adult worms; 10 µM, 48 h; direction not given): 3
CC(=O)NC[C@H]1CN(c2ccc(N3CCOCC3)c(F)c2)C(=O)O1 — MIC50 (Staphylococcus aureus; MRSA, 10 isolates; serum 50%): 2 µg/mL (≈ 5.93 µM)
CN1CCCN(c2ncc(-c3ccc4nncc(Nc5cnccn5)c4c3)cn2)CC1 — phenotypic severity score (Schistosoma mansoni; adult worms; 10 µM, 48 h; direction not given): 0
CC(C)n1ncc2c(C(=O)NCC3(C)CNC3)cc(C3CC3)nc21 — cell protection (Enterovirus D68; cytopathic effect; RD, US/MO/14-18947; 500 nM): 93.2% and 101% and 98.5%
CC1=C(Cc2cn(CCO)nn2)C(=O)c2ccccc2C1=O — IC50 (Schistosoma mansoni; viability; adult worms; 72 h): 7.3 µM
CN(C)c1ccc(O)c2c1C[C@H]1C[C@H]3[C@H](N(C)C)C(O)=C(C(N)=O)C(=O)[C@@]3(O)C(O)=C1C2=O — total adult worm count (Brugia malayi; SCID mouse; dose not given, 6 weeks post-treatment, dosing x28d): 7
COc1ccc(Nc2cnnc3cc(-c4cnc(N5CCCN(C)CC5)nc4)ccc23)cc1 — phenotypic severity score (Schistosoma mansoni; adult worms; 10 µM, 1 h; direction not given): 0
C[C@@H](CO)CCC[C@@H](C)[C@H]1CC[C@H]2[C@@H]3CC=C4C[C@@H](O)CC[C@]4(C)[C@H]3CC[C@]12C — EC50 (Human rotavirus; Caco-2, Wa): 440 nM
CC1=C(Cn2cc(C(C)(C)O)nn2)C(=O)c2ccccc2C1=O — killing (Schistosoma mansoni; adult worms; 10 µM, 72 h): 40.8%
N=C(N)c1ccc(OCc2cc(Br)cc(COc3ccc(C(=N)N)cc3)c2)cc1 — FICI (Escherichia coli; checkerboard; mcr-3 polymyxin-resistant; unit not given, with: rifampicin; lower = stronger synergy): 0.078
CC1=C(Cn2cc(CN3CCNCC3)nn2)C(=O)c2ccccc2C1=O — killing (Schistosoma mansoni; adult worms; 25 µM, 24 h): 43.8%
CN1CCN(S(=O)(=O)c2ccc(-c3ccc4nncc(Nc5cnccn5)c4c3)cc2)CC1 — phenotypic severity score (Schistosoma mansoni; adult worms; 10 µM, 5 h; direction not given): 0

A few entries again:
CC(=O)N1CCC(C(=O)N2CCN3C(=O)c4cc(-c5ccccc5)ccc4NC(=O)C3C2)CC1 (centres unmarked) — mean lifespan (Caenorhabditis elegans; N2; 6.25 µM): 18.8 days
OC(Cn1cncn1)(Cn1cncn1)c1ccc(F)cc1F — biofilm mass reduction (Candida albicans; XTT, preformed biofilm; ATCC 60193; 1 × MIC, 24 h): 44 to 50%
C=CC(=O)ON=C1C=CC(=C(C#N)c2ccccc2)C=C1 — MFC (Kluyveromyces marxianus; broth dilution; ATCC 204093; 48 h, 37 °C): 16 µg/mL (≈ 57.9 µM)
CC(=Nc1ccc(N=Cc2cnccn2)cc1)N(C)C — worm count (Necator americanus; infected hamsters, small intestine; oral, 50 mg/kg single, 2 h): 10.5 ± 1.8
N#Cc1cc(F)c(-c2c(Cl)nc(-c3cccs3)nc2NCC2CCC2)c(F)c1 — EC50 (Schistosoma mansoni; worm motility; adult worms ex vivo; 24 h): < 300 nM
COC(=O)[C@H](Cc1ccc(O)cc1)NCc1cc2ccccc2nc1SC — growth (Pseudomonas aeruginosa; 8 µg/mL, with: pentamidine 50 µM; baseline: control): 98%
